{"data": "Values quoted from earlier work that unrelated publications cite", "note": "Protocols differ between the studies behind these lines. Numbers after ± are the reported error.", "UniProt Q16584, sequence (whole entry, looked up)": "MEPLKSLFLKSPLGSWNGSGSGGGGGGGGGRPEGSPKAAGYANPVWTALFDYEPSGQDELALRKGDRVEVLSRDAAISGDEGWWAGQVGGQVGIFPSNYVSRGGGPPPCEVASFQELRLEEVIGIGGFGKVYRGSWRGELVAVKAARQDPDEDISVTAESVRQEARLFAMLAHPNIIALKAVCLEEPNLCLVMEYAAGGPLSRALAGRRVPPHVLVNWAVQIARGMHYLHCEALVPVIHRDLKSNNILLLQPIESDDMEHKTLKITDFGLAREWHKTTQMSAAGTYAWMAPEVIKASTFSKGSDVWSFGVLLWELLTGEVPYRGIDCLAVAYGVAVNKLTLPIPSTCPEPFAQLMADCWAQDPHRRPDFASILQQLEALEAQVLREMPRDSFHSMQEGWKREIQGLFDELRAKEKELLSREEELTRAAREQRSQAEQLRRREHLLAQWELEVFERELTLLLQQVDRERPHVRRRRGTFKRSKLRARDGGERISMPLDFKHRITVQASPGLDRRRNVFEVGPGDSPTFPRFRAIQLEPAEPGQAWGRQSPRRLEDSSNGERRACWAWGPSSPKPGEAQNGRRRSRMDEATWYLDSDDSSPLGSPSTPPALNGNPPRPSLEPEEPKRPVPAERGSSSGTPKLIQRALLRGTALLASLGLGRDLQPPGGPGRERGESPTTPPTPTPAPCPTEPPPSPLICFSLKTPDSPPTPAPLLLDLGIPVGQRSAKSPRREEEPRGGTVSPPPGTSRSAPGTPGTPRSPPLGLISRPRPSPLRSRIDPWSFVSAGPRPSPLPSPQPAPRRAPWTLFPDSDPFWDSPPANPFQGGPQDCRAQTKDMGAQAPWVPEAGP"}
{"SMILES": "C[C@H]1CO[C@@H]2Cn3cc(C(=O)NCc4ccc(F)cc4F)c(=O)c(O)c3C(=O)N12", "test system": "human", "conditions": "oral tablet, two 5 mg tablets, geometric mean fed", "quantity": "AUC(0-inf)", "value": "51600 ng·h/mL"}
{"SMILES": "C[C@@H](Oc1ccc(S(C)(=O)=O)cc1C(=O)N1C[C@@H]2C[C@]2(c2cc(C(F)(F)F)on2)C1)C(F)(F)F", "test system": "human", "conditions": "oral, 5 mg, solution, fasted, single dose", "quantity": "AUC(0-inf)", "value": "2.02 µM·h"}
{"SMILES": "CC(C)c1nc(N(C)S(C)(=O)=O)nc(-c2ccc(F)cc2)c1/C=C/[C@@H](O)C[C@@H](O)CC(=O)O", "test": "BCRP substrate", "test system": "human, plasma", "conditions": "dose not given, with: without pirtobrutinib", "quantity": "AUC(0-inf)", "value": "88.2 ng·h/mL"}
{"SMILES": "C=CC(=O)Nc1cc(Nc2nccc(-c3cn(C)c4ccccc34)n2)c(OCC(F)(F)F)nc1N(C)CCN(C)C", "test system": "healthy human", "conditions": "80 mg, single dose", "quantity": "AUC(0-inf)", "value": "907 ng·h/mL"}
{"SMILES": "CNCc1cc(-c2ccccc2F)n(S(=O)(=O)c2cccnc2)c1", "test system": "human", "conditions": "20 mg, single dose", "quantity": "AUC(0-inf)", "value": "158 ng·h/mL"}
{"SMILES": "CNC(=O)c1c(C)oc2cc(Oc3ncnc4cc(OC)c(OC)cc34)ccc12", "test system": "healthy human subjects, plasma", "conditions": "5 mg, single dose", "quantity": "AUC(0-inf)", "value": "5960 ng·h/mL"}
{"SMILES": "Cc1ccccc1CN1C(=O)C2=C(CCN(Cc3ccccc3)C2)N2CCN=C12", "test system": "human", "conditions": "oral, 625 mg, high-fat meal, single dose", "quantity": "AUC(0-inf)", "value": "18800 ng·h/mL"}
{"SMILES": "Cc1nsc(-c2nnc3n2CCN(C(=O)c2ccc(F)cc2)[C@@H]3C)n1", "test system": "human", "conditions": "oral, 45 mg, single dose, formulation", "quantity": "AUC(0-inf)", "value": "3960 ng·h/mL"}
{"SMILES": "Nc1cc(C(F)(F)F)c(-c2nc(N3CCOCC3)nc(N3CCOCC3)n2)cn1", "tested on": "MAP3K11 (Homo sapiens, UniProt Q16584)", "test": "enzyme activity", "conditions": "10 µM", "how to read": "relative to: untreated", "quantity": "remaining activity", "value": "100%"}
{"SMILES": "Cc1cc(C)c(CNC(=O)c2cc(Cl)c3c(c2C)O[C@@](C)([C@H]2CC[C@H](N(C)C)CC2)O3)c(=O)[nH]1", "test system": "human", "conditions": "100 mg", "quantity": "AUC(0-inf)", "value": "5870 ng·h/mL"}
{"SMILES": "COc1cc2c(Oc3ccc4[nH]c(C)cc4c3F)ccnc2cc1OCC1(N)CC1", "test system": "human", "conditions": "10 mg single dose", "quantity": "AUC(0-inf)", "value": "562 ± 328 ng·h/mL"}
{"SMILES": "C#C[C@]1(O)CC[C@H]2[C@@H]3CCC4=CC(=NO)CC[C@@H]4[C@H]3CC[C@@]21CC (mixture of isomers)", "test system": "human", "conditions": "0.18 mg norgestimate single dose, fasted", "quantity": "AUC(0-inf)", "value": "9.52 ng·h/mL"}
{"note": "A few entries again:"}
{"SMILES": "Cc1cc(C)c(CNC(=O)c2cc(Cl)c3c(c2C)O[C@@](C)([C@H]2CC[C@H](N(C)C)CC2)O3)c(=O)[nH]1", "test system": "human", "conditions": "100 mg", "quantity": "AUC(0-inf)", "value": "5870 ng·h/mL"}
